Experimental data of several laboratories.
Parts stem from different laboratories: compare values within a part only. Positions count from the first letter of the parent shown.

Series 1
Target: CCND3, cyclin fold, Cln2 fusion (human)
Method: yeast growth competition, sequencing
Medium: yeast
Notes: weak parent motif
Relative to: not given
Direction: higher = stronger binding
Starting sequence: CDT1 docking peptide (human); PPARRRLRLSVDE
| Substitution | normalised enrichment score |
| --- | --- |
| PPARRRLRLAVDE [S10A] | 0.0496 |
| PPARKRLRLSVDE [R5K] | 0.264 |
| PPAARRLRLSVDE [R4A] | 0.121 |
| PPARRALRLSVDE [R6A] | 0.161 |
| PPARRRLRLSVDA [E13A] | 0.168 |
| PPARRRLRLSVAE [D12A] | 0.277 |
| APARRRLRLSVDE [P1A] | 0.0695 |

Series 2
Target: Ras GTPase-activating protein-binding protein 1, full length (G3BP1, Homo sapiens, UniProt Q13283)
UniProt Q13283, sequence (whole entry, looked up): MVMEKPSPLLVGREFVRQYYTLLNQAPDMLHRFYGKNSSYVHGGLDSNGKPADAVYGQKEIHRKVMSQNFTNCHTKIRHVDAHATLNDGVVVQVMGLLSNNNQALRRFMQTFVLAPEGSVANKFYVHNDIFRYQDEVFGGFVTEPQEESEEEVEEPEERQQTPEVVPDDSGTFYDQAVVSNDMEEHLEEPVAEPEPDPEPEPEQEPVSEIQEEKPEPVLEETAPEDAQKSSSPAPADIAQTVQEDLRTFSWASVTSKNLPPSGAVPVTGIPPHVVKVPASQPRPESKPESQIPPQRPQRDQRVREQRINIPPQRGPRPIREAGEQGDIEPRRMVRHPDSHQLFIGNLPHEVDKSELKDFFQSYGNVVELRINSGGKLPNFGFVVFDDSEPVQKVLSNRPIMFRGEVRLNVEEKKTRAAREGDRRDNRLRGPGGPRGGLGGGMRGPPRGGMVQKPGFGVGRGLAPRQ
Method: RNA Bind-n-Seq
Molecule type: RNA
Medium: in vitro
Concentration: 200 nM
Notes: whole 134-nt RNA, ends assumed
Added: 150 mM KCl
Relative to: input library
Direction: higher = stronger binding
| Sequence | log2 enrichment |
| --- | --- |
| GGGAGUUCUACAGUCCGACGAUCUGGGAGGUGGAUUUUGUUUAUUUUUUUAGCUCAUUUCCAGGGGUGGGAAUUUUUUUUUAAUAUGUGUCAUGAAGAAAGUUGUUUUUGAAAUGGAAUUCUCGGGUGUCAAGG | 0.22 |
| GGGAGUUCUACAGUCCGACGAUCUCUUGUAUGACUUAACCCCUGUUUCUAAUACAGGGGCCGCUCUCCUCAGCCUCCUGCUGAAGAGGAUGAAGAUGACUUUGAUGAUACCCUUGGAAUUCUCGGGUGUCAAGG | 0.399 |
| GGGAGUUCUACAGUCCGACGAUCUCAAGUCCUGUGCUACACAUCGUAUGUACCGAAUCGGUGGUUUUUUUGGAAAGGAAAGUAUUAUGUUACGCCGUUCGGAUCUGCACUUCCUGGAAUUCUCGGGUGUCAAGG | -0.857 |
| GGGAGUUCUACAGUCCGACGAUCUCCUCAAGUCCUGUGCUACACAUCGUAUGUACCGAAUCGGGCGGGCGGCGGGAAAGUAUUAUGUUACGCCGUUCGGAUCUGCACUUCCAGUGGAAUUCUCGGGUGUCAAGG | 0.139 |
| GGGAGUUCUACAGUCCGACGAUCUUGAAAGAAUUUGCCAACUUUGACUUUGAUGUCUGGAGGAAAAAGUAUAUGCGUUGGAUGAAUCACAAAAAGUCUCGAGUGAUGGAUUUCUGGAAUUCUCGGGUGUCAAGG | -1.8 |
| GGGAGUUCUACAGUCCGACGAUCAGUCCUGUGCUACACAUCGUAUGUACCGAAUCGGAAAAGGGGAAAAGGGGAAAAGGGGAAAGUAUUAUGUUACGCCGUUCGGAUCUGCACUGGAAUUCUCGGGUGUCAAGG | -0.0427 |
| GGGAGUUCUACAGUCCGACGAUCCAAGUCCUGUGCUACACAUCGUAUGUACCGAAUCGGAAAGGAAAAAAAGGAAAGGAAAGUAUUAUGUUACGCCGUUCGGAUCUGCACUUCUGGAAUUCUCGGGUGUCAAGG | -0.963 |
| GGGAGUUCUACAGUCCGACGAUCUUUAAACUGAAGCCGCGGCCGAAAACGCCAAGAGAUUGAUGCUGUAGCUGCCCUGAGAUAACCAGGACUGUGGAAUCGGGAAGAGCUCAUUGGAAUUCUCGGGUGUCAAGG | -0.381 |
| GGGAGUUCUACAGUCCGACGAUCGUCCUGUGCUACACAUCGUAUGUACCGAAUCGGAAAAAAAGGUUUUUUUGGUUUUUGGAAAGUAUUAUGUUACGCCGUUCGGAUCUGCACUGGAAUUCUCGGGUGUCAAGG | -1.63 |

Series 3
Target: Sal-like protein 4, full length isoform B (SALL4, Homo sapiens, UniProt Q9UJQ4-2, residues 1-616)
Method: universal PBM
Molecule type: double-stranded DNA, one strand shown
Medium: in vitro
Concentration: not given
Notes: 8-mer, flanks averaged, mean of replicates
Direction: higher = stronger binding
Target sequence (chain): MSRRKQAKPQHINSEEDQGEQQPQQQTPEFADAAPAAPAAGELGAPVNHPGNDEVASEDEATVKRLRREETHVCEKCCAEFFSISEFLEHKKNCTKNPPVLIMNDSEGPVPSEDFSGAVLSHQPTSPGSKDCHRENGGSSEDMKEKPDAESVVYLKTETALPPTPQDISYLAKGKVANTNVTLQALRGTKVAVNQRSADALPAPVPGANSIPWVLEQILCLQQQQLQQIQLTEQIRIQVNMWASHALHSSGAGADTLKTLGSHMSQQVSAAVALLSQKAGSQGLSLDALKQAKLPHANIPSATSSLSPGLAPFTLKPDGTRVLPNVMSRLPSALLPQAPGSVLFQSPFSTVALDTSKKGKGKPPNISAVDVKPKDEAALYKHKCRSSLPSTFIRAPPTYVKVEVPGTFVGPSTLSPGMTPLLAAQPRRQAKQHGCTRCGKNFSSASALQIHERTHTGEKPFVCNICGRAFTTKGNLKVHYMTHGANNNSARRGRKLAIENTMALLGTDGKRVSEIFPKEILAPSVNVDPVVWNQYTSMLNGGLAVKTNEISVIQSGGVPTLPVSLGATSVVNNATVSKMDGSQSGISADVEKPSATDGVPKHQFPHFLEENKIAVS
| Sequence | E-score |
| --- | --- |
| CTAGACCC | -0.28 |
| ATAGCTAA | 0.134 |
| CTCTGCCC | -0.158 |
| AGTGCCGC | -0.167 |
| GAGGCGGA | -0.147 |
| CAGCCACG | -0.151 |
| AGAATGAC | 0.092 |
| ACAACCAT | 0.235 |
| ATATTTGA | 0.38 |
| AGGGTTTA | 0.0832 |
| CAGTCTGC | -0.222 |
| ATCAGGGC | -0.115 |
| ACATGCCA | -0.0115 |
| CGCAATTC | 0.00344 |
| CGCGCATA | 0.0284 |
| ACGTGCCT | -0.0544 |

Series 4
Target: RNA binding protein fox-1 homolog 2, RRM domain, GST-SBP tag (RBFOX2, Homo sapiens, UniProt O43251-10, residues 100-194)
Method: RNA Bind-n-Seq
Molecule type: RNA
Medium: in vitro
Concentration: 365 nM
Notes: natural RNA segment, single round, ends assumed
Relative to: no-protein control
Direction: higher = stronger binding
Residues (chain): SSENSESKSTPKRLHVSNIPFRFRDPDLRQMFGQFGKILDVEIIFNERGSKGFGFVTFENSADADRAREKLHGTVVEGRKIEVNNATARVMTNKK
| Sequence | RBNS enrichment (R) |
| --- | --- |
| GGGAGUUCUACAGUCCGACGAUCAAGUUGAGACUAUAAGAGUCAUAAAUAAGUCCUUGUGUUUCCUUAAUUUAUUUUGUUAACACCCCUAAUUACAACCAAAGUGAUGAUGUGGAGUCUUCUGUCUUCAUUUUUGGAAUUCUCGGGUGCCAA | 0.625 |
| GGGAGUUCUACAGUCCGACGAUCAGCAGCAAUUGCAGAGUGACCAGUGAACUUUAUGGACUUAGCUGACAACUCCUAGAACAUGUGCACCCAUGCAUAUGAUGACAGAUGUCUGCUUUUAAUGCAGCUGUGGAUGGAAUUCUCGGGUGCCAA | 0.357 |
| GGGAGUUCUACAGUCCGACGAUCAUGCUCCCACCUGUCCAGGUAUUAAUGGAAUCCCCAGCAGGUGUCUAGAUGUAUGGGCAGGGCUGCACCAAGGCCUGGGCAUGCUUCCUCAGGGUAUCAAAGGAGCCCUUUGGAAUUCUCGGGUGCCAA | 1.42 |
| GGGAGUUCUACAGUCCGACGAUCGUGGCAGUAAAGAGAAACUUUGCUACACAACAAAAAGCUGCUAAAUCUCCCUCUAUUUUUUUAAAAUCACUAACAUUAUAUUGCAAUGAGAGAAAUUUUAAAAAGUCUCUUGGAAUUCUCGGGUGCCAA | 0.319 |
| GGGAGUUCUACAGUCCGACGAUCGACACAAAAAGUAGCCACUGCGGUUAAAGCUUUGCUUAUUGUAACAGGCUUUUAUUUCCAGGUAACCUAUCUGUGGAAGACCUAAUUCUGAAUAGAGUAAUAGAUAUUACUGGAAUUCUCGGGUGCCAA | 0.375 |
| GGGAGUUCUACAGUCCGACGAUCAGAGAUGCCUGUCCUGUGCUUGGAUAGUCAGUCAAUUAUUUGUGUAUGAAACAAUGUACAAAUCAAUGUUUUGAAAAUAAUGAUCUCAGACUUUCUAAGUUAAAUUUUAAUGGAAUUCUCGGGUGCCAA | 0.73 |
| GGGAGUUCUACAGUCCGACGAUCAUUGCUUGGUUUUGAUUAAAGUCUGAGCCUGAUACUGAUAUGAUUUUAAAGCGUAGCUGAACCGACUGAAACUAUUAUGGAGAUUACAAUAAAUAAUUGCAUUCAAUCUGUGGAAUUCUCGGGUGCCAA | 0.317 |
| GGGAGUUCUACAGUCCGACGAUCGCCCUGUCCCUUCCUCCAGAUCCGUCUGGUUUUUUACACCGUUUGUUAAUAAAGCCUGAAACCGCUGUGUGCCUGUCUCUUCUCUGAUGGCUUUCCCAGUCUGUCUCCGGUGGAAUUCUCGGGUGCCAA | 0.999 |
